Assay results from different studies.
Protocols differ between the studies behind these lines.
B1: TIMP3 24-144 (Homo sapiens, UniProt P35625); sequence looked up; chain CTCSPSHPQDAFCNSDIVIRAKVVGKKLVKEGPFGTLVYTIKQMKMYRGFTKMPHVQYIHTEASESLCGLKLEVNKYQYLLTGRVYDGKMYTGLCNFVERWDQLTLSQRKGLNYRYHLGCN
B2: erenumab; V domains shown; sequence looked up; VH QVQLVESGGGVVQPGRSLRLSCAASGFTFSSFGMHWVRQAPGKGLEWVAVISFDGSIKYSVDSVKGRFTISRDNSKNTLFLQMNSLRAEDTAVYYCARDRLNYYDSSGYYHYKYYGMAVWGQGTTVTVSS; VL QSVLTQPPSVSAAPGQKVTISCSGSSSNIGNNYVSWYQQLPGTAPKLLIYDNNKRPSGIPDRFSGSKSGTSTTLGITGLQTGDEADYYCGTWDSRLSAVVFGGGTKLTVL
B3: Sema6a 19-571 K393D (Mus musculus, UniProt O35464); sequence looked up; chain GFPEDSEPISISHGNYTKQYPVFVGHKPGRNTTQRHRLDIQMIMIMNRTLYVAARDHIYTVDIDTSHTEEIYCSKKLTWKSRQADVDTCRMKGKHKDECHNFIKVLLKKNDDTLFVCGTNAFNPSCRNYRVDTLETFGDEFSGMARCPYDAKHANIALFADGKLYSATVTDFLAIDAVIYRSLGDSPTLRTVKHDSKWLKEPYFVQAVDYGDYIYFFFREIAVEYNTMGKVVFPRVAQVCKNDMGGSQRVLEKQWTSFLKARLNCSVPGDSHFYFNILQAVTDVIRINGRDVVLATFSTPYNSIPGSAVCAYDMLDIANVFTGRFKEQKSPDSTWTPVPDERVPKPRPGCCAGSSSLEKYATSNEFPDDTLNFIDTHPLMDEAVPSIINRPWFLRTMVRYRLTKIAVDNAAGPYQNHTVVFLGSEKGIILKFLARIGSSGFLNGSLFLEEMNVYNPEKCSYDGVEDKRIMGMQLDRASGSLYVAFSTCVIKVPLGRCERHGKCKKTCIASRDPYCGWVRESGSCAHLSPLSRLTFEQDIERGNTDGLGDCHNS
Sequence of UniProt P07949 (whole entry, looked up): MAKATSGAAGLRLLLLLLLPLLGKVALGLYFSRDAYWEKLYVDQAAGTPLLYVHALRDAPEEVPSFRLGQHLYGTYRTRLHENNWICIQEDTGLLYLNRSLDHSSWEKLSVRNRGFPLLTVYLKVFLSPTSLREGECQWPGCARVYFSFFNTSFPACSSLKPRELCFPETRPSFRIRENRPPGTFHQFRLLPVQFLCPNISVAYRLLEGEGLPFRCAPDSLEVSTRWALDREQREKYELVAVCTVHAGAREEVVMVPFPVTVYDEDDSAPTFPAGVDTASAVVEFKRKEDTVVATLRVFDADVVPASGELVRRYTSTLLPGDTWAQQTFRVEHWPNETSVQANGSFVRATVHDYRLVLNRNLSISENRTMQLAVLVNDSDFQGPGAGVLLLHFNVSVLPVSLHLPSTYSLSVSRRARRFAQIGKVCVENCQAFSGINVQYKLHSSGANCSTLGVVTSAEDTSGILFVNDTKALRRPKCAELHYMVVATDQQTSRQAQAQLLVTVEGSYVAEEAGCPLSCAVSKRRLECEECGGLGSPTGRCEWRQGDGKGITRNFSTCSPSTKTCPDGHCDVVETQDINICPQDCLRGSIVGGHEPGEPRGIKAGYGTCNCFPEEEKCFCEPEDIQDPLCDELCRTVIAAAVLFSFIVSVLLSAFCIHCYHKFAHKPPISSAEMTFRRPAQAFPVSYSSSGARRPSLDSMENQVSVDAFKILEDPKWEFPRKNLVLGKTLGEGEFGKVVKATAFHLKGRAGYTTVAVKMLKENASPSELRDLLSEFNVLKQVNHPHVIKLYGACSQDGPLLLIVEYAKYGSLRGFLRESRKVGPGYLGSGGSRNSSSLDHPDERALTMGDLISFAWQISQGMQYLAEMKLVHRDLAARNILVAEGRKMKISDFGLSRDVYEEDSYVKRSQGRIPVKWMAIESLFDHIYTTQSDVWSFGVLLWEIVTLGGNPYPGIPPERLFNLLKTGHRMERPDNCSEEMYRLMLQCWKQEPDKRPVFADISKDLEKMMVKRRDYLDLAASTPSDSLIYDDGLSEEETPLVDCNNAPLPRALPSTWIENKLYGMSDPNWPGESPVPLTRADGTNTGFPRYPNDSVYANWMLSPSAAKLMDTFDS
Sequence of UniProt P70207 (whole entry, unmodified, looked up): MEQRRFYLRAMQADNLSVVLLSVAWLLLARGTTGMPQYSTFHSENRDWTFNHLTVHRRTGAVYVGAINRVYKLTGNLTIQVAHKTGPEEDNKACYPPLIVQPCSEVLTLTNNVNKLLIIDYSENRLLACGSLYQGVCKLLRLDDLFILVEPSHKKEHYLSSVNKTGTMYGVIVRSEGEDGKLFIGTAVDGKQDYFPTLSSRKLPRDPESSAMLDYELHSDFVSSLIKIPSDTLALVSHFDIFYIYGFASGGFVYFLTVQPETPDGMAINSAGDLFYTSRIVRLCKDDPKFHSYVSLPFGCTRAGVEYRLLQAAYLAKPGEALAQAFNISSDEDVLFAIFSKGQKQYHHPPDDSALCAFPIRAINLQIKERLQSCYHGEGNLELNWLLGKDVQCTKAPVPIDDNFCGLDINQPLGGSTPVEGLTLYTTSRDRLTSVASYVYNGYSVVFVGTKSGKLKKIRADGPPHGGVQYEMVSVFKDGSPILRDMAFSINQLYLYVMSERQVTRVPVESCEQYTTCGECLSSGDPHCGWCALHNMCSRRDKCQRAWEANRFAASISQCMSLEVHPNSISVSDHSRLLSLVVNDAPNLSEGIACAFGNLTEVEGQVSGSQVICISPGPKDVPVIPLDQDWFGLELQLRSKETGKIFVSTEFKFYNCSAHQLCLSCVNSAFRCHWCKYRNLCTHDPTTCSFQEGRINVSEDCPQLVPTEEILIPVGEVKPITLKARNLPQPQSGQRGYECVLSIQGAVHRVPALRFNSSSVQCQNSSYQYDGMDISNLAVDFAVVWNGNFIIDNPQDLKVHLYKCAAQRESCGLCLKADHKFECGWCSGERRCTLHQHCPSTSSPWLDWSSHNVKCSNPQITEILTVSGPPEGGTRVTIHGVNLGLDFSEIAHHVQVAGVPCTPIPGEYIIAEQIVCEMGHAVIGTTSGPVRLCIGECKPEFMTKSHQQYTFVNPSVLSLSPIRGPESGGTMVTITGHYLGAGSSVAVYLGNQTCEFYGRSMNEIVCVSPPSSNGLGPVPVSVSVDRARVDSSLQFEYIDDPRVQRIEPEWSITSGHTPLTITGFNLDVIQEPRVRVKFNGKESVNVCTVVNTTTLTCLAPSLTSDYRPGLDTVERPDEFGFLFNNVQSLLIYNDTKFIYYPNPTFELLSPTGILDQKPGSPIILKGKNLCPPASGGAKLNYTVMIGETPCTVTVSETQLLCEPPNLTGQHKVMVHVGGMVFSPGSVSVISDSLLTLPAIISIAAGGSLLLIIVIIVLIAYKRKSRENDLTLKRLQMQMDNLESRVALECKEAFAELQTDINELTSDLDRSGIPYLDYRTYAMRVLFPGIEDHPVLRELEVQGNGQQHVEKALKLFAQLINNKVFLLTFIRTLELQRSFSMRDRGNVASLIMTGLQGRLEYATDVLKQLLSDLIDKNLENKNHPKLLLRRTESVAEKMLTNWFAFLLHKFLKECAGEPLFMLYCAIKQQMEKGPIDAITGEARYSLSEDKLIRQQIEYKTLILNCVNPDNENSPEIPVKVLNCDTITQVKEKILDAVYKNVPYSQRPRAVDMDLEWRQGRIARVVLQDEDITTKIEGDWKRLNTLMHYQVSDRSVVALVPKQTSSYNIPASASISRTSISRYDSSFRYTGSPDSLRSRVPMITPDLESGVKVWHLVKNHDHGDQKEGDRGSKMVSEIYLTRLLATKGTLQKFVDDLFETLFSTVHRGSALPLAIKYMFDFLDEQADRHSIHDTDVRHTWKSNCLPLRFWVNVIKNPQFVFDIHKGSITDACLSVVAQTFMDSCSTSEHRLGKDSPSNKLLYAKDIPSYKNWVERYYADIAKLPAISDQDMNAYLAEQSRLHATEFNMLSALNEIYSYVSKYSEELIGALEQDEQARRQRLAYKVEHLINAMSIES
Sequence of UniProt O60656 (whole entry, looked up): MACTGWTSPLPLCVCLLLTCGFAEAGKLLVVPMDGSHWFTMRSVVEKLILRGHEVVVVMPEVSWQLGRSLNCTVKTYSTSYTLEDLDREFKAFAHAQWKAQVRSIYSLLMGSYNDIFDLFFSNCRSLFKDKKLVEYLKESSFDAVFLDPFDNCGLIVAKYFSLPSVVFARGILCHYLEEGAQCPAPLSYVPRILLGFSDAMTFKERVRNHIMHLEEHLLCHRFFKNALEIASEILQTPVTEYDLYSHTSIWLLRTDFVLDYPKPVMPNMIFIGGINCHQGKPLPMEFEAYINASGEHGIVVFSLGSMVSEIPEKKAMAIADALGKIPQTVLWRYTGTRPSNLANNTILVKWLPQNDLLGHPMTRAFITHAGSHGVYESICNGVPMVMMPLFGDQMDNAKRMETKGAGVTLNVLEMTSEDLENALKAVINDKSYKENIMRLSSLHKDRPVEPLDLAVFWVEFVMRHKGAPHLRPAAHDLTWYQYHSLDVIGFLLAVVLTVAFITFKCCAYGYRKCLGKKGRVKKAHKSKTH
Sequence of UniProt P10909 (whole entry, looked up): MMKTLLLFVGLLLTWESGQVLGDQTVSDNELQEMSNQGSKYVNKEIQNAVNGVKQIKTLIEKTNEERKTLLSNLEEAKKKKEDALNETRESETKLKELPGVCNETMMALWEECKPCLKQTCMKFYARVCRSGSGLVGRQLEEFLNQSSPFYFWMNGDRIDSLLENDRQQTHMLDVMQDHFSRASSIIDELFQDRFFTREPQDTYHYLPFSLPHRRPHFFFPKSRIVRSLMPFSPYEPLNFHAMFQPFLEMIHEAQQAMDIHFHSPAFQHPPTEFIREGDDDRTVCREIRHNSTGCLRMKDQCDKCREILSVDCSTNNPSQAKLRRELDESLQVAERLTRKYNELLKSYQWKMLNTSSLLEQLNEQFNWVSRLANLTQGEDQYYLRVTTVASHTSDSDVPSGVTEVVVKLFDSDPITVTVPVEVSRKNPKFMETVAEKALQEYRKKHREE
Sequence of UniProt P04177 (whole entry, looked up): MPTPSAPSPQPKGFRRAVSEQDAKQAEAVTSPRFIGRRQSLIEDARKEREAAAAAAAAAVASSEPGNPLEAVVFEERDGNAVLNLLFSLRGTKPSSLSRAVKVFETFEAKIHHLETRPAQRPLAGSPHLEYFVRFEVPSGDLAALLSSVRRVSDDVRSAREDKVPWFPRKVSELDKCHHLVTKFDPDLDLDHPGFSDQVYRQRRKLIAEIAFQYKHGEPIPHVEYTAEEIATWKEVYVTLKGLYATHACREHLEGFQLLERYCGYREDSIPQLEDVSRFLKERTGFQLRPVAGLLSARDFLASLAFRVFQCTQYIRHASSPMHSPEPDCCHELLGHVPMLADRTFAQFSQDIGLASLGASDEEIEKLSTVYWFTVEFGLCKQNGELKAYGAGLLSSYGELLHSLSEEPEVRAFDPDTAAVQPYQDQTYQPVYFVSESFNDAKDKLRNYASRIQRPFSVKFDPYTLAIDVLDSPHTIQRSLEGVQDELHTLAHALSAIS
Sequence of UniProt P06881 (whole entry, looked up): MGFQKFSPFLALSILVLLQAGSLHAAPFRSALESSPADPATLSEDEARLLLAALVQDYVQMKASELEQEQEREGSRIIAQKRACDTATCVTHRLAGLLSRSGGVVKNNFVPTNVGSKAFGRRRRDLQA

Substance	tested on	assay	system	conditions	scale	quantity	result
TIMP2 N-terminal domain S4E/N38Q/V71N/H97R/T99S	MMP14 fragment (Homo sapiens)	fluorogenic substrate cleavage, inhibitor, enzyme inhibition assay		apparent		Ki	1.02 nM
CALCA mature alpha-CGRP (Homo sapiens, UniProt P06881)	CALCR whole, on cells (Homo sapiens)	cAMP, CAMYEL BRET	COS-7	end-point		pEC50	7.67
UGT1A9 (Homo sapiens, UniProt O60656)	COc1ccc2c(=O)c(O)c(-c3ccccc3)oc2c1	steady-state kinetics		pH 7.4, 37 °C		Km	0.27 µM
B1 (TIMP3 24-144)	ADAMTS5 262-874 (Homo sapiens, UniProt Q9UNA0)	inhibitor, steady-state kinetics		1 h, pH 7.5, 37 °C		Ki	0.35 nM
BRD4 (Homo sapiens, UniProt O60885)	TWIST1 (Homo sapiens, UniProt Q15672)	Gal4-luciferase reporter		with: BRD4	baseline: control, higher = more activity	reporter activity	8 fold
Ppp2r5b E153Q (Rattus norvegicus)	GST-TH 31-164, pS40 (UniProt P04177)	Ser40 dephosphorylation	COS, immunoisolated holoenzyme		baseline: wild type, higher = less activity	relative dephosphorylation inhibition	50 % inhibition
TPDYLMQLMNDKKLMSSLPNFSGIFNHLERLLDEEASRVRKDMYNDTLNGSTEK (Qki 14-67 C35S/I49A (Mus musculus, UniProt Q9QYS9))	itself	CD thermal melting		50 µM		melting temperature	38 °C
NRTN fragment Y119A (Homo sapiens)	RET 29-635 (Homo sapiens, UniProt P07949)	MAPK signaling, SRE luciferase reporter, agonist	TGW neuroblastoma			EC50	13 ng/mL
B2 (erenumab)	CALCR/RAMP1 on cells (Homo sapiens)	cAMP production, antagonist, Schild analysis	antibody, HEK293S	with: αCGRP		pKB	6.58
DIS3 (Saccharomyces cerevisiae, UniProt Q08162)	CSL4/RRP4/RRP40/RRP41/RRP42/RRP46/RRP43/RRP45/MTR3 Exo9 core (Saccharomyces cerevisiae)	AU-rich RNA degradation			baseline: free Rrp44, lower = less active	relative exoribonuclease activity	8 fold
BRD1 fragment E41K/E43K/E45K (Homo sapiens) (sequence not shown)	histone H4 (Bos taurus, UniProt P62803)	pull-down				binding	binds
NSFL1C (Homo sapiens, UniProt Q9UNZ2)	VCP (Homo sapiens, UniProt P55072)	ATPase activity, inhibitor		biphasic		concentration of maximum inhibition	3.1 nM
clusterin (Homo sapiens, UniProt P10909)	APP Aβ42 (UniProt P05067)	ThT fluorescence		0.3 µM, 37 °C	baseline: Aβ42 or BSA alone, higher = more fibrillation	maximal Aβ42 fibrillation	49%
B3 (Sema6a 19-571 K393D)	PlxnA2 35-703 (Mus musculus, UniProt P70207)	SPR		pH 7.5, 25 °C, NaCl 150 mM	baseline: wild type, higher = weaker binding	fold weaker binding	> 200 fold

Some of these lines once more:
Substance	tested on	assay	system	conditions	scale	quantity	result
clusterin (Homo sapiens, UniProt P10909)	APP Aβ42 (UniProt P05067)	ThT fluorescence		0.3 µM, 37 °C	baseline: Aβ42 or BSA alone, higher = more fibrillation	maximal Aβ42 fibrillation	49%
B3 (Sema6a 19-571 K393D)	PlxnA2 35-703 (Mus musculus, UniProt P70207)	SPR		pH 7.5, 25 °C, NaCl 150 mM	baseline: wild type, higher = weaker binding	fold weaker binding	> 200 fold
